Results pooled from the literature.
Lines come from different studies, so protocols differ. ± gives the spread as reported.

SMILES	cell line	observed	method	time	notes	CC50 [µM]
Nc1ccn([C@@H]2O[C@H](CO)[C@@H](O)[C@H]2F)c(=O)n1	COLO 205		sulforhodamine B	11 days	galactose medium	47
CCOC(=O)C1NC(c2ccc[n+](C)c2)C23c4c5c6c7c8c9c(c%10c%11c2c2c4c4c%12c5c5c6c6c8c8c%13c9c9c%10c%10c%11c%11c2c2c4c4c%12c%12c5c5c6c8c6c8c%13c9c9c%10c%10c%11c2c2c4c4c%12c5c6c5c8c9c%10c2c45)C713 (centres unmarked)	Ramos	cell growth or viability		24 h		36.9
CCOC(=O)C(CC)NC(=O)CN1C(=O)S/C(=C\c2ccc(C)cc2)C1=O (centres unmarked)	PMA-differentiated THP-1, Leishmania-infected		resazurin	72 h		> 100
CCc1c(CC2CCCCC2)nc(SCC(=O)c2ccccc2)[nH]c1=O	C8166			3 days		> 200
CCOC(=O)C(NC(=O)CN1C(=O)/C(=C/c2ccc3c(c2)OCO3)SC1=S)C(C)C (centres unmarked)	PMA-differentiated THP-1, Leishmania-infected		resazurin	72 h		> 100
COC(=O)C1NC(c2ccc[n+](C)c2)C23c4c5c6c7c8c9c(c%10c%11c2c2c4c4c%12c5c5c6c6c8c8c%13c9c9c%10c%10c%11c%11c2c2c4c4c%12c%12c5c5c6c8c6c8c%13c9c9c%10c%10c%11c2c2c4c4c%12c5c6c5c8c9c%10c2c45)C713 (centres unmarked)	Ramos	cell growth or viability		24 h		> 25
CC1(C(=O)O)CCC2(C)CCC3(C)C(=CC(=O)C4C5(C)CCC(OC6OC(C(=O)NC(CCCCNC(=O)OCc7ccccc7)C(=O)O)C(O)C(O)C6OC6OC(C(=O)NC(CCCCNC(=O)OCc7ccccc7)C(=O)O)C(O)C(O)C6O)C(C)(C)C5CCC43C)C2C1 (centres unmarked)	Raji	cell growth or viability	MTT	72 h		> 8000
COc1ccc(CN2C[C@H](O)[C@H](O)[C@@H]2CO)cc1	MRC-5		MTS	72 h		> 200
CCN(CC)CCCC(C)Nc1cc[n+]([Ru-]([OH2+])[OH2+])c2cc(Cl)ccc12.Cc1ccc(C(C)C)cc1.F[B-](F)(F)F.F[B-](F)(F)F (centres unmarked)	SUP-T1	cytotoxicity				54
O=c1ccn([C@@H]2O[C@H](CO)[C@@H](O)[C@H]2F)c(=O)[nH]1	COLO 205		sulforhodamine B	11 days	glucose medium	> 250
C[N+](C)(C)c1ccc(C2NC(c3ccc([N+](C)(C)C)cc3)C34c5c6c7c8c9c%10c(c%11c%12c3c3c5c5c%13c6c6c7c7c9c9c%14c%10c%10c%11c%11c%12c%12c3c3c5c5c%13c%13c6c6c7c9c7c9c%14c%10c%10c%11c%11c%12c3c3c5c5c%13c6c7c6c9c%10c%11c3c56)C824)cc1 (centres unmarked)	Ramos	cell growth or viability		24 h		18.8
Nc1ncnc2c1ncn2[C@@H]1O[C@H](CO)[C@@H](O)[C@H]1F	COLO 205		sulforhodamine B	11 days	galactose medium	107
COC(=O)CCC(NC(=O)C1OC(OC2C(OC3CCC4(C)C(CCC5(C)C4C(=O)C=C4C6CC(C)(C(=O)NC(CCC(=O)OC)C(=O)OC)CCC6(C)CCC45C)C3(C)C)OC(C(=O)NC(CCC(=O)OC)C(=O)OC)C(O)C2O)C(O)C(O)C1O)C(=O)OC (centres unmarked)	Raji	cell growth or viability	MTT	72 h		> 8000
O=C1c2ccc(O)c(O)c2C(=O)N1Cc1cccc(Cl)c1F	HOS		ATPlite	48 h		5.1 ± 0.6
COC(=O)C(CCSC)NC(=O)C1OC(OC2C(OC3CCC4(C)C(CCC5(C)C4C(=O)C=C4C6CC(C)(C(=O)O)CCC6(C)CCC45C)C3(C)C)OC(C(=O)NC(CCSC)C(=O)OC)C(O)C2O)C(O)C(O)C1O (centres unmarked)	Raji	cell growth or viability	MTT	72 h		> 8000
OC[C@H]1O[C@@H](n2cnc3c(O)ncnc32)[C@H](F)[C@@H]1O	COLO 205		sulforhodamine B	11 days	glucose medium	114
COC(=O)C(CCC(=O)O)NC(=O)C1OC(OC2C(OC3CCC4(C)C(CCC5(C)C4C(=O)C=C4C6CC(C)(C(=O)O)CCC6(C)CCC45C)C3(C)C)OC(C(=O)NC(CCC(=O)O)C(=O)OC)C(O)C2O)C(O)C(O)C1O (centres unmarked)	Raji	cell growth or viability	MTT	72 h		4000
COc1ccc(S(=O)(=O)O)cc1N=Nc1c(S(=O)(=O)O)cc2cc(NCc3nc(CNc4cc(C)c(N=Nc5cc(S(=O)(=O)O)cc6cc(S(=O)(=O)O)cc(O)c56)cc4OC)nc(Nc4ccccc4)n3)ccc2c1O	CEMx174 5.25M7			3 days		450 ± 33
CN(C)S(=O)(=O)c1cc(O)c(O)c2c1CN(Cc1ccc(F)c(Cl)c1)C2=O	HOS		ATPlite	48 h		6.6 ± 0.4
COCC(C)N1CCn2cc(C(=O)NCc3ccc(F)cc3F)c(=O)c(O)c2C1=O (centres unmarked)	HOS	cell growth or viability		48 h		> 250

Some of these lines once more:
SMILES	cell line	observed	method	time	notes	CC50 [µM]
O=C1c2ccc(O)c(O)c2C(=O)N1Cc1cccc(Cl)c1F	HOS		ATPlite	48 h		5.1 ± 0.6
COC(=O)C(CCSC)NC(=O)C1OC(OC2C(OC3CCC4(C)C(CCC5(C)C4C(=O)C=C4C6CC(C)(C(=O)O)CCC6(C)CCC45C)C3(C)C)OC(C(=O)NC(CCSC)C(=O)OC)C(O)C2O)C(O)C(O)C1O (centres unmarked)	Raji	cell growth or viability	MTT	72 h		> 8000
